Assay results gathered from unrelated publications.
Each line is one published result; not all experiments were run side by side. Values joined by “and” are separate records of one study, mostly repeats; a detail may differ. ± gives the spread as reported. Ends that are not written are not given here.
rep main protease: Replicase polyprotein 1ab, main protease (rep, Severe acute respiratory syndrome coronavirus 2, UniProt P0DTD1)

GsMTx4  SAC current after washout (stretch-activated cation channel, rat; ion current, outside-out patch clamp; rat astrocytes; dose not given, 10 s after washout, mean of last eight pressure steps): 2.28 ± 0.17 pA
CC(C)=CC[C@@H](O)C1=CC(=O)c2c(O)ccc(O)c2C1=O  IC50 (Enterovirus A71 3C protease; enzyme activity, FRET): > 60 µM
CC(=O)N[C@@H](CC(C)C)C(=O)N[C@@H](CC(C)C)C(=O)N[C@H](C=O)CCCNC(=N)N  proteolysis (trypsin; spike protein cleavage, inhibitor; SARS-CoV-2; 100 µM, with: trypsin 25 nM): inhibited
CC(C)CC(=O)OC[C@H]1O[C@@](C#N)(c2ccc3c(N)ncnn23)[C@H](O)[C@@H]1O  inhibition (strychnine-sensitive glycine receptor rat; radioligand binding; 20 µM): 6%
c1ccc(C(NCCNC(c2ccccc2)c2ccccc2)c2ccccc2)cc1  inhibition (strychnine-sensitive glycine receptor, rat; binding; 10 µM, Eurofins selectivity panel): -8%
NC1=N[C@H](O)[C@H]2[C@H]3O[C@]4(O)O[C@@H]([C@@H](O)[C@@]2(N1)[C@@H]4O)[C@]3(O)CO  action potential firing (voltage-gated sodium channels; depolarization-evoked action potentials, inhibitor; concentration not given): inhibited
CC[C@H](C)[C@H](NC(=O)[C@H](CC(C)C)NC(=O)[C@H](Cc1c[nH]c2ccccc12)NC(=O)[C@H](CCC(N)=O)NC(=O)[C@@H](NC(=O)[C@H](Cc1ccccc1)NC(=O)[C@H](C)NC(=O)[C@H](CCCCNC(=O)COCCOCCNC(=O)COCCOCCNC(=O)CC[C@H](NC(=O)CCCCCCCCCCCCCCCCCCC(=O)O)C(=O)O)NC(=O)[C@H](CCC(N)=O)NC(=O)[C@H](C)NC(=O)[C@@H](NC(=O)[C@H](CCCCN)NC(=O)[C@H](CC(=O)O)NC(=O)[C@H](CC(C)C)NC(=O)C(C)(C)NC(=O)[C@@H](NC(=O)[C@H](CO)NC(=O)[C@H](Cc1ccc(O)cc1)NC(=O)[C@H](CC(=O)O)NC(=O)[C@H](CO)NC(=O)[C@@H](NC(=O)[C@H](Cc1ccccc1)NC(=O)[C@@H](NC(=O)CNC(=O)[C@H](CCC(=O)O)NC(=O)C(C)(C)NC(=O)[C@@H](N)Cc1ccc(O)cc1)[C@@H](C)O)[C@@H](C)O)[C@@H](C)CC)[C@@H](C)CC)C(C)C)C(=O)N[C@@H](C)C(=O)NCC(=O)NCC(=O)N1CCC[C@H]1C(=O)N[C@@H](CO)C(=O)N[C@@H](CO)C(=O)NCC(=O)N[C@@H](C)C(=O)N1CCC[C@H]1C(=O)N1CCC[C@H]1C(=O)N1CCC[C@H]1C(=O)N[C@@H](CO)C(N)=O  serum lipase (healthy subjects, single ascending dose; 1.0 mg, day 29): 30.2 ± 22.3 U/L
QPLRKLCILHRNPGRCYQKIPAFYYNQKKKQCEGFTWSGCGGNSNRFKTIEECRRTCIRK (dendrotoxin I; ends and bridges not checked; cysteine pairing not given here; sequence looked up)  substate current level (maxi-KCa channel, rat muscle; channel current, planar bilayer single-channel; concentration not given, internal, +30 mV; baseline: unitary current): ~60%
CCC(C)SSc1ncc[nH]1 (centres unmarked)  IC50 (Enterovirus A71 2A protease; enzyme activity, FRET): > 60 µM
Cn1cnc(Cn2c(=O)[nH]/c(=N\c3cc4cn(C)nc4cc3Cl)n(Cc3cc(F)c(F)cc3F)c2=O)n1  dry mouth TEAE, Moderate severity (human, normal renal function; oral, 375 mg): 0%
Nc1ncnc2c([C@@H]3N[C@H](CO)[C@@H](O)[C@H]3O)c[nH]c12  inhibition (Marburg marburgvirus; viral RNA in supernatant; HeLa, Musoke; 0.8 µM, 24 h): 0%
GCCSNPVCHLEHSNLC (α-conotoxin MII; not fully specified (C-terminus, bridges); cysteine pairing not given here; sequence looked up)  remaining peak current (nAChR, mouse; ion current; peptide, SCG neurons of wild-type mice; dose not given; baseline: control): 100% and 98.4% and 98.2%
O=c1sn(-c2cccc3ccccc23)c(=O)n1Cc1ccccc1  IC50 (Enterovirus A71 3C protease; enzyme activity, FRET): > 60 µM
CC(C)(NS(=O)(=O)c1ccc2c(Cl)cnc(N=C(N)N)c2c1)C(=O)O  inhibition (rep main protease; viral replication, mKate2 reporter; SARS-CoV-2; 20 µM): -0.809%
CNC(=O)[C@@H](NC(=O)[C@H](CC(C)C)[C@H](O)C(=O)NO)C(C)(C)C  remaining activity (Daboia russelii venom proteases (SVMP); protease activity, inhibitor; RJ population; 10 µM, with: azocasein substrate; baseline: venom alone): 0%
CCC(CC)O[C@@H]1C=C(C(=O)O)C[C@H](N)[C@H]1NC(C)=O  IC50 (neuraminidase N1 swine influenza; influenza A virus, swine strains; mean): 0.00126 µM
O=c1c2ccccc2[se]n1-c1ccccc1  IC50 (Enterovirus A71 3C protease; enzyme activity, FRET): > 60 µM
COc1ccc2cc3[n+](cc2c1OC)CCc1cc2c(cc1-3)OCO2  inhibition (SARS-CoV-2 envelope protein; Vero C1008; 20 µg/mL): 87.5 ± 6.9%
CCN(CC)C(=S)SSC(=S)N(CC)CC  IC50 (Enterovirus A71 3C protease; enzyme activity, FRET): > 60 µM
COC(=O)N[C@H](C(=O)N[C@@H](Cc1ccccc1)[C@@H](O)CN(Cc1ccc(-c2ccccn2)cc1)NC(=O)[C@@H](NC(=O)OC)C(C)(C)C)C(C)(C)C.O=S(=O)(O)O  inhibition (rep main protease; reporter gene (mKate2), inhibitor; 20 µM): 0.17%

Repeated from above:
CC(C)(NS(=O)(=O)c1ccc2c(Cl)cnc(N=C(N)N)c2c1)C(=O)O  inhibition (rep main protease; viral replication, mKate2 reporter; SARS-CoV-2; 20 µM): -0.809%
CCC(CC)O[C@@H]1C=C(C(=O)O)C[C@H](N)[C@H]1NC(C)=O  IC50 (neuraminidase N1 swine influenza; influenza A virus, swine strains; mean): 0.00126 µM
